Experimental data collected from several papers.
Each line is one published result; not all experiments were run side by side. Values joined by “and” are separate records of one study, mostly repeats; a detail may differ. ± marks the error that the study gave.
Ricin A chain: Ricin, A chain (Ricinus communis, UniProt P02879)
OPRK1: Kappa-type opioid receptor (OPRK1, Homo sapiens, UniProt P41145)

Chains of the proteins cited; added tags and fusions are not shown. Residues count along the entry.
UniProt P41145, whole entry: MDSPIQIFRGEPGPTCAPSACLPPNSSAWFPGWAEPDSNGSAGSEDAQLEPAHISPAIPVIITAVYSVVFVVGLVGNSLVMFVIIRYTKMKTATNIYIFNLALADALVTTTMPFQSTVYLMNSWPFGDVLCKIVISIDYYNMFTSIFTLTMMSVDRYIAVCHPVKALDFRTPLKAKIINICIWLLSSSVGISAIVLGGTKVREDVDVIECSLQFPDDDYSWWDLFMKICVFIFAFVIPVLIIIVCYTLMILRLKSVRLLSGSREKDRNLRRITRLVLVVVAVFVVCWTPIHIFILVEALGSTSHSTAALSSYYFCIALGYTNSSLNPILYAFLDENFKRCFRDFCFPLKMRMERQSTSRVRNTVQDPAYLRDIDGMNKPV
UniProt P32300, whole entry: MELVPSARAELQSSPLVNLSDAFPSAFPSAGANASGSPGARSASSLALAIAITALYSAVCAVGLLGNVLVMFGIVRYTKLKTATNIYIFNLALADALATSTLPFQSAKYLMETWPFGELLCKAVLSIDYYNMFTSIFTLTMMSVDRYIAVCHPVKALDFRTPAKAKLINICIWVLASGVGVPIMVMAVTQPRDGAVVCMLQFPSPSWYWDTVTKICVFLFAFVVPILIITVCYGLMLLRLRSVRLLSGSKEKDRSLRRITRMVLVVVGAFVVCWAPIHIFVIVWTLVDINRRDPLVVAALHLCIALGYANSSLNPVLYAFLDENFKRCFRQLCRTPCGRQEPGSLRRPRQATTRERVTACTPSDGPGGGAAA
UniProt P22303, 32-614 limits assumed: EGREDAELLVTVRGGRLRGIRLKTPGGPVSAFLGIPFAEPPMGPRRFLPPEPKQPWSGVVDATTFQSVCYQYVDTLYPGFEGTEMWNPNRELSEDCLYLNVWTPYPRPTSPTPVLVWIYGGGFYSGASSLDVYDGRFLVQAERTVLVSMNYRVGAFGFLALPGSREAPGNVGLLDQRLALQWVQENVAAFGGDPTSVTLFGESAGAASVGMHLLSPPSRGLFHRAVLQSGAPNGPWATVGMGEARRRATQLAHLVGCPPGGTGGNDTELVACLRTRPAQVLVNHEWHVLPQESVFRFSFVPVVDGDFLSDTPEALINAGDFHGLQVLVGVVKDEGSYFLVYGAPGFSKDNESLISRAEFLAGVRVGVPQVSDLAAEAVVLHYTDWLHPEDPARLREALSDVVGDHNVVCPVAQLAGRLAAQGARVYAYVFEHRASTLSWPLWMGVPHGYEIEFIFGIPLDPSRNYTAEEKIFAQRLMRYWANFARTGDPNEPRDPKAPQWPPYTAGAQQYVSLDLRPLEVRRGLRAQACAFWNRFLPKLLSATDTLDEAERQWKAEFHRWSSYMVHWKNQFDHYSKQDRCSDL
UniProt P22303, whole entry, looked up: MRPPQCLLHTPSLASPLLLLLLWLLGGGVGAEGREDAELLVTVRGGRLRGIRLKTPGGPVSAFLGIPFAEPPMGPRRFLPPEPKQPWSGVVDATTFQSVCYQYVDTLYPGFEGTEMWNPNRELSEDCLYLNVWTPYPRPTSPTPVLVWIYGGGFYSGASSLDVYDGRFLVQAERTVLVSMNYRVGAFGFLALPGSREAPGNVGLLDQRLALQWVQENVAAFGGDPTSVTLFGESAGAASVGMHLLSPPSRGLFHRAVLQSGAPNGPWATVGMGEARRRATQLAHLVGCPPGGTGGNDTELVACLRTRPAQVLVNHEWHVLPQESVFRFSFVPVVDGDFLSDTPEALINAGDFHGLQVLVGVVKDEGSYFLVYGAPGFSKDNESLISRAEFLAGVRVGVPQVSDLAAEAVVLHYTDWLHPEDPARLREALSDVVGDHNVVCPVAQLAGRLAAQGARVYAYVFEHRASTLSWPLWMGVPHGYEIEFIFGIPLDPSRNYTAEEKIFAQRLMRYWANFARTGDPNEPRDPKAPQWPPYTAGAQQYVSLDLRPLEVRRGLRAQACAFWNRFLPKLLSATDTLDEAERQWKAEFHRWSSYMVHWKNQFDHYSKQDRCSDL
UniProt P36544, 23-502 limits assumed: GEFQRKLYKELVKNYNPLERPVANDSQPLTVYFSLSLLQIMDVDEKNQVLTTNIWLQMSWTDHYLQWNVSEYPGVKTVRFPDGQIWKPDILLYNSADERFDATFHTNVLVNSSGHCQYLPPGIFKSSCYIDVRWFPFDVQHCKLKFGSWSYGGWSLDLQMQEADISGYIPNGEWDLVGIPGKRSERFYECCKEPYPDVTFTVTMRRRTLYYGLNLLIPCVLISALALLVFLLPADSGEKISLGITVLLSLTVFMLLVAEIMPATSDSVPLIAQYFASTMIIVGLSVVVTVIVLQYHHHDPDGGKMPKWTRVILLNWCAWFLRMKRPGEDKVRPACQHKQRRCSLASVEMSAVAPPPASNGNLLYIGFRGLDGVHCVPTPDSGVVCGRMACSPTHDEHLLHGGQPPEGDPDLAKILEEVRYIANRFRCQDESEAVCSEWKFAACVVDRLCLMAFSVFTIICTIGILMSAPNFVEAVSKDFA
UniProt P21836, whole entry, looked up: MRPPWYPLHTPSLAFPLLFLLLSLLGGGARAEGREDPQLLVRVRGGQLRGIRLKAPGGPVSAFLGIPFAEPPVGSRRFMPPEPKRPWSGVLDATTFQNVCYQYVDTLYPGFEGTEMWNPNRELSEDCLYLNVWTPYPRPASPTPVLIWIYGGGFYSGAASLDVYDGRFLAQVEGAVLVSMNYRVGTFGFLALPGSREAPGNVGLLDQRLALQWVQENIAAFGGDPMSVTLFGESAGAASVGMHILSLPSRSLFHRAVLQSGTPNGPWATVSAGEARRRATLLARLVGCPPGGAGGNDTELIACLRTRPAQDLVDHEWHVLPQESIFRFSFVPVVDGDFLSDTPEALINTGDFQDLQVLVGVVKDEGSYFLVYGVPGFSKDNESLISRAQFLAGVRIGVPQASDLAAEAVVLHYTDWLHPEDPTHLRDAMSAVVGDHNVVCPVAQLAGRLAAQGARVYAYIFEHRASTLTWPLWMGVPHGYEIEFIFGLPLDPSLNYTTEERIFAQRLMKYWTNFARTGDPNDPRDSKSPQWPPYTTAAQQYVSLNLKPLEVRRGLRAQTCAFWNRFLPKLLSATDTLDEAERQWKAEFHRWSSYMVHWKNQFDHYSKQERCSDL
UniProt P04757, 26-499 limits assumed: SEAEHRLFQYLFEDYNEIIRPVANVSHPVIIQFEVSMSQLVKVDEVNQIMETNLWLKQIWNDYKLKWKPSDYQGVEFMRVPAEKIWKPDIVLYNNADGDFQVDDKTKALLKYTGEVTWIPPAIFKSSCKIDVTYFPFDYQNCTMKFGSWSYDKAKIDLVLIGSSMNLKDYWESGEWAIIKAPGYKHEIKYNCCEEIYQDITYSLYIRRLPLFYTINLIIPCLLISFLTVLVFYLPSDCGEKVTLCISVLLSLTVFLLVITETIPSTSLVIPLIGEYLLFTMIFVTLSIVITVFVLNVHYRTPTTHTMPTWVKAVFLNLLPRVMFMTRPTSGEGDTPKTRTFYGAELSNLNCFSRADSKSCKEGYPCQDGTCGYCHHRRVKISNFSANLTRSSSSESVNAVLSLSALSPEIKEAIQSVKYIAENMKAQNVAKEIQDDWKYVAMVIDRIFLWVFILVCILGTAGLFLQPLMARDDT
UniProt P12390, 25-500 limits assumed: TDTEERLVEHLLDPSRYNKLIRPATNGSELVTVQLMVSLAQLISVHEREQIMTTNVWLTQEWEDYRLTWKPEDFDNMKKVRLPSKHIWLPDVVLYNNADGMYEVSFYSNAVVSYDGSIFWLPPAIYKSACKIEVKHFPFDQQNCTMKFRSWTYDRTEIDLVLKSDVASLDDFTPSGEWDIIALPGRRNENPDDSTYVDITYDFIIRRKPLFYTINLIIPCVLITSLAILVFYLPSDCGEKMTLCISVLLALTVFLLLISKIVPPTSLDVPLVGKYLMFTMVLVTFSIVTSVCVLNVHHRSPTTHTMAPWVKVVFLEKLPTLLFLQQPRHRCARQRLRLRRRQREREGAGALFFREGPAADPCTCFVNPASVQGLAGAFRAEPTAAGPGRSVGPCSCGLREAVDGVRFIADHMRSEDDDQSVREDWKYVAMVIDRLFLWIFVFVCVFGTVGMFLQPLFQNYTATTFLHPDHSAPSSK
UniProt P23953, whole entry, looked up: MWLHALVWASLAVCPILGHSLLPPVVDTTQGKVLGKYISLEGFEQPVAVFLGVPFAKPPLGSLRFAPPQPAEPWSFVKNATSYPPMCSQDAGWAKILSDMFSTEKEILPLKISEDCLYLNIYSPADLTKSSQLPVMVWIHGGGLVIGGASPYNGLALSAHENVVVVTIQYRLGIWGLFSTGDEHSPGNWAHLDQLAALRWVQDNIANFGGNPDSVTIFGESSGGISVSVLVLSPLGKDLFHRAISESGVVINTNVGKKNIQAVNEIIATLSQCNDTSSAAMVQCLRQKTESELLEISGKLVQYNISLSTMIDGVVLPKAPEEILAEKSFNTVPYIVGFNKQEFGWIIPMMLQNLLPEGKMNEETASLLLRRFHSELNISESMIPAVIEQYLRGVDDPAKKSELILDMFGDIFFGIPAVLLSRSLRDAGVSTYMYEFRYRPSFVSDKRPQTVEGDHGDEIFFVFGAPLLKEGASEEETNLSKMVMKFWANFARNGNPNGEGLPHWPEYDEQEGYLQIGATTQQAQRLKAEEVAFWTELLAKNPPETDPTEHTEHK
UniProt P41143, whole entry: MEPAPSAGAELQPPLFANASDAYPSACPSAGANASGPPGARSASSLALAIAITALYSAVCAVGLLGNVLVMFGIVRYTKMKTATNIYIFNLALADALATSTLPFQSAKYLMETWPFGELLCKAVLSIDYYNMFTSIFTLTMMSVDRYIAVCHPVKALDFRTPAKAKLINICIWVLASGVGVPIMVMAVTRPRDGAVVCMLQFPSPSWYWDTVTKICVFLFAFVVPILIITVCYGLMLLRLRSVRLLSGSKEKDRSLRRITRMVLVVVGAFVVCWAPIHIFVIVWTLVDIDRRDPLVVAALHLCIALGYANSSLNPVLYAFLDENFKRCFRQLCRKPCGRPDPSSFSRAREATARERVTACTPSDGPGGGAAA

SMILES = NC(=O)c1cnc2c(=O)[nH]c(N)nc2n1; tested on = Ricin A chain; test = differential scanning fluorimetry; conditions = 500 µM, pH 7.5, 2 µM protein; measurement = ΔTm; value = 1 °C
SMILES = COc1c(C)c2c(c(O)c1C/C=C(\C)CCC(=O)O)C(=O)OC2; tested on = guaB (Bacillus anthracis, UniProt A0A6L8P2U9); test = inhibitor; conditions = together with: IMP varied, 1.3 mM NAD+; measurement = Kii; value = 4.83 ± 0.04 µM
SMILES = O=CN1CC[C@]23c4c5ccc(O)c4O[C@H]2[C@@H](O)C=C[C@H]3[C@H]1C5; tested on = Oprd1 (Mus musculus, UniProt P32300); system = mouse vas deferens; conditions = concentration not given; measurement = activity; value = inactive
SMILES = CC(C)OP(=S)(OC(C)C)SCCNS(=O)(=O)c1ccccc1; tested on = ACHE (Homo sapiens, UniProt P22303); test = enzyme activity, inhibitor, colorimetric; conditions = human liver microsomes with NADPH; measurement = IC50; value = inactive
SMILES = CO[C@]12CC[C@@]3(C[C@@H]1[C@](C)(O)c1cccs1)[C@H]1Cc4ccc(O)c5c4[C@@]3(CCN1CC1CC1)[C@H]2O5; tested on = OPRK1; test = G-protein activation, agonist; conditions = 10 µM; scale = baseline: U-69593; measurement = stimulation; value = 30 ± 6%
SMILES = C[C@@H]1NC(=O)[C@H](CCCNC(=N)N)NC(=O)[C@H](CCCNC(=N)N)NC(=O)[C@H](CCCNC(=N)N)NC(=O)[C@H](CO)NC(=O)[C@@H]2CSSC[C@H](NC(=O)CN)C(=O)N[C@@H](CSSC[C@@H](C(N)=O)NC(=O)[C@H](CO)NC(=O)[C@H](CCCNC(=N)N)NC1=O)C(=O)N[C@@H](CO)C(=O)N[C@@H](Cc1c[nH]cn1)C(=O)N1CCC[C@H]1C(=O)N[C@@H](C)C(=O)N2; tested on = CHRNA7 (Homo sapiens, UniProt P36544); test = ion current, antagonist; system = Xenopus oocytes; conditions = 10 µM, 5 min, together with: acetylcholine; scale = baseline: control; measurement = remaining response; value = 1.4 ± 1.8%
SMILES = CCN(CC)Cc1cc(N)ccc1O; tested on = Acetylcholinesterase, paraoxon-inhibited (ACHE, Homo sapiens, UniProt P22303); test = reactivation of inhibited enzyme, reactivator; conditions = together with: 1-inhibited enzyme; measurement = Hill coefficient; value = 2.8 ± 0.23
SMILES = CCOP(=S)(OCC)Oc1cc(C)nc(C(C)C)n1; tested on = Ache (Mus musculus, UniProt P21836); test = enzyme activity; system = mice; conditions = subcutaneous, 50 mg/kg, toxicant challenge; scale = baseline: baseline; measurement = time to AChE recovery; value = ≤ 48 h
SMILES = Nc1nc2nc(C(=O)NCCNc3ccccc3)cnc2c(=O)[nH]1; tested on = Ricin A chain; test = differential scanning fluorimetry; conditions = 500 µM, pH 7.5, 2 µM protein; measurement = ΔTm; value = 3 °C
SMILES = Cc1cc2c(-c3ccco3)cnc(N[C@@H]3CCN(C)C[C@H]3C(=O)NC3CCCCC3)c2[nH]c1=O; tested on = OPRK1; test = binding, radioligand binding; conditions = 10 µM; measurement = inhibition; value = 28.1%
SMILES = CN(C)c1ccc(C(=O)On2nnc3ccccc32)cc1; tested on = Replicase polyprotein 1ab, 3C-like proteinase (rep, Severe acute respiratory syndrome-related coronavirus, UniProt P0C6X7); test = covalent acylation of Cys145, ESI-MS; conditions = 2 h, 18 h dialysis; scale = baseline: untreated protease; measurement = mass shift; value = 149 Da
SMILES = NC12CC3CC(CC(C3)C1)C2; tested on = Influenza A virus; test = viral replication, plaque size reduction; system = MDCK, A/Swine/Indiana/29-0404/2010 (H1N2); measurement = EC50; value = 62.6 ± 5.4 µM
SMILES = CC(C)C[C@@H]1NC(=O)[C@H](CCC(=O)O)NC(=O)[C@@H]2CCCN2C(=O)[C@H](Cc2c[nH]cn2)NC(=O)[C@H](CCCC(=O)O)NC(=O)[C@H](CC(C)C)NC(=O)[C@H](Cc2c[nH]cn2)NC(=O)[C@@H]2CSSC[C@H](NC(=O)CN)C(=O)N[C@@H](CSSC[C@@H](C(N)=O)NC1=O)C(=O)N[C@@H](CO)C(=O)N[C@@H](Cc1c[nH]cn1)C(=O)N1CCC[C@H]1C(=O)N[C@@H](C)C(=O)N2; tested on = Neuronal acetylcholine receptor; alpha3/beta2 (Rattus norvegicus, UniProt P04757+P12390); scale = baseline: IC50 α6/α3β2β3 over α3β2; measurement = selectivity ratio; value = 52 and ~52
SMILES = CCOP(=O)(OCC)Oc1ccc([N+](=O)[O-])cc1; tested on = Ces1c (Mus musculus, UniProt P23953); test = enzyme activity, alpha-naphthyl acetate hydrolysis; system = ES1+/+ mice, plasma; conditions = subcutaneous, 0.2 mg/kg, 24 h, toxicant challenge; scale = baseline: baseline; measurement = remaining activity; value = 60%
SMILES = CN(C)[C@]1(c2ccccc2)CC[C@]2(CC1)OCCc1c3cc(F)ccc3[nH]c12; tested on = OPRD1 (Homo sapiens, UniProt P41143); test = cAMP, agonist; conditions = human receptor; measurement = Emax; value = 90.4 ± 2.2%

A few entries again:
SMILES = C[C@@H]1NC(=O)[C@H](CCCNC(=N)N)NC(=O)[C@H](CCCNC(=N)N)NC(=O)[C@H](CCCNC(=N)N)NC(=O)[C@H](CO)NC(=O)[C@@H]2CSSC[C@H](NC(=O)CN)C(=O)N[C@@H](CSSC[C@@H](C(N)=O)NC(=O)[C@H](CO)NC(=O)[C@H](CCCNC(=N)N)NC1=O)C(=O)N[C@@H](CO)C(=O)N[C@@H](Cc1c[nH]cn1)C(=O)N1CCC[C@H]1C(=O)N[C@@H](C)C(=O)N2; tested on = CHRNA7 (Homo sapiens, UniProt P36544); test = ion current, antagonist; system = Xenopus oocytes; conditions = 10 µM, 5 min, together with: acetylcholine; scale = baseline: control; measurement = remaining response; value = 1.4 ± 1.8%
SMILES = CCOP(=S)(OCC)Oc1cc(C)nc(C(C)C)n1; tested on = Ache (Mus musculus, UniProt P21836); test = enzyme activity; system = mice; conditions = subcutaneous, 50 mg/kg, toxicant challenge; scale = baseline: baseline; measurement = time to AChE recovery; value = ≤ 48 h
